# Results pooled from the literature.
# Protocols differ between the studies behind these lines. Values joined by “and” are separate records of one study, mostly repeats; a detail may differ. ± gives the spread as reported.
SMILES,test,test system,setting,scale,measurement,value
C=CCN1CC(=O)N2[C@@H](Cc3ccc(O)cc3F)C(=O)N(Cc3cccc(N4CC(N5CCN(CC)CC5)C4)n3)C[C@@H]2N1C(=O)NCc1ccccc1,,advanced solid tumour patients,"oral, 30 mg twice daily, grade ≥3, dose-escalation",,treatment-related decreased appetite,0%
CNC(=O)c1ccc(-c2cnc3ncc(Cc4ccc5ncccc5c4)n3n2)cc1F,,human severe hepatic impairment,"oral, 200 mg single dose, covariate-adjusted geometric mean",,AUC(0-t),9110 ng·h/mL
Cc1cc2sc(N)nc2c2cccnc12,,"female BALB/c mice, plasma","intraperitoneal, 30 mg/kg",,dose-normalised AUC(0-inf),1520 kg·ng·h/mL/mg
C=CC[C@@H]1/C=C(\C)C[C@H](C)C[C@H](OC)[C@H]2O[C@@](O)(C(=O)C(=O)N3CCCC[C@H]3C(=O)O[C@H](/C(C)=C/[C@@H]3CC[C@@H](O)[C@H](OC)C3)[C@H](C)[C@@H](O)CC1=O)[C@H](C)C[C@@H]2OC,,"Wistar Kyoto rat, male, 24-hour urine","ip, 0.5 mg/kg/day, day 18",,urinary Mg2+ excretion,344 ± 68 µmol/day
NCCONC(=O)[C@@H]1CC[C@@H]2CN1C(=O)N2OS(=O)(=O)O,measured: Moderate severity,healthy Chinese men,"intravenous, 1 g, treatment-related",,adverse event incidence,0%
CCn1c(=O)c(-c2cc(NC(=O)Nc3ccccc3)c(F)cc2Br)cc2cnc(N)cc21,"plasma protein binding, ultracentrifugation","healthy human subjects, plasma",24 h post-dose,,unbound fraction,≤ 0.5%
O=C(N[C@H](Cc1c[nH]c2ccccc12)C(=O)Nc1ccncc1)c1ccc(-c2ccc(F)c(C(F)(F)F)c2)cc1F,,"Swiss Webster mouse, female, plasma","oral, 50 mg/kg, 2 h, 20% HPβCD vehicle",,concentration,1390 nM
CN1CC[C@@H](NC(=O)Nc2ccc(C#N)cc2)C[C@@H]1c1nc2ccccc2[nH]1,linear mixed-effects model,"healthy volunteers, plasma",oral,baseline: placebo,ΔΔQTcF concentration slope,0.005 ms per ng/mL
NC(CO)(CO)CCc1ccc(Sc2cccc(OCc3ccccc3)c2)cc1Cl,,"human, supine","oral, 3 mg, 0 to 312 h, alone",,"pulse rate AUEC, mean",19200 h×bpm
NC1(C(=O)N[C@@H](CCO)c2ccc(Cl)cc2)CCN(c2nc[nH]c3nccc2-3)CC1,,human mCRPC patients,"oral, twice daily, 4/7 days, any grade, treatment-related, together with: enzalutamide 160 mg daily",,maculo-papular rash incidence,20%
Cc1cc(-c2nnc(N)nc2-c2ccc(F)cc2)cc(Cl)n1,measured: Vomiting,"other solid tumours, post-IO","oral, 100 mg once daily, all grades",,patients with treatment-related AE,33.3%
COc1ncc(-c2nc3c(n2C(C)C)[C@H](c2ccc(Cl)cc2)N(c2cc(Cl)cn(C)c2=O)C3=O)c(OC)n1,LC-MS/MS,"human, plasma","oral, 20 mg, cycle 1 day 1, low-dose arm",,AUC(0-last),2290 ng·h/mL
C[C@@H]1[C@H](O)[C@@H](C)/C=C/C=C/C=C/C=C/C=C/C=C/C=C/[C@H](O[C@@H]2O[C@H](C)[C@@H](O)[C@H](N)[C@@H]2O)C[C@@H]2O[C@](O)(C[C@@H](O)C[C@@H](O)[C@H](O)CC[C@@H](O)C[C@@H](O)CC(=O)O[C@H]1C)C[C@H](O)[C@H]2C(=O)O,,human blood,"500 µg/mL, 12 h, DMSO solvent",,hemolysis,13.8% and 13.4% and 14.6%
C[C@@H](N)C1CCN(S(=O)(=O)c2cccc3cnccc23)CC1,measured: Rash,healthy volunteers,"25 mg, fasted",,TEAE incidence,0%
O=C(O)CCC(=O)O.[2H]C([2H])([2H])Oc1cc(C)c2[nH]ccc2c1CN1CC[C@@H](C2CC2)C[C@H]1c1ccc(C(=O)O)cc1,,"human, plasma","100 mg twice daily, day 1, multiple ascending dose, geometric mean",,Cmax,1790 ng/mL
C=CC(=O)Nc1cc(Nc2nccc(-c3cn(C)c4ccccc34)n2)c(OC)cc1N(C)CCN(C)C,storage stability,human dried blood spots,"24 h, -80 °C, LLOQ level",,recovery,82.6%
CN(C)C(=N)N=C(N)N,measured: oral herpes,healthy men,"dose not given, 8 days, treatment-emergent, crossover trial",,subjects with adverse event,0%
CC(C)(C(=O)N1CCOc2c(C#N)cncc2C1)C(F)F,measured: blood creatine phosphokinase increased,"healthy humans, both sexes","oral, 10 mg single dose",,subjects with TEAE,0%
Cc1cc(-c2nccc3c2ccn3CC(=O)Nc2ccc(-c3cnccn3)cn2)ccn1,,human,"5 mg once daily, multiple ascending dose",,nervous system disorders,0%
Cc1ccc(C)c(OCCCC(C)(C)C(=O)O)c1,measured: V/F,"human subjects, plasma","oral, dose not given, together with: lopinavir-ritonavir",baseline: with over without lopinavir-ritonavir,geometric mean ratio,1.69
C[C@H](CCC(=O)NCC(=O)O)[C@H]1CC[C@H]2[C@@H]3[C@H](O)C[C@@H]4C[C@H](O)CC[C@]4(C)[C@H]3CC[C@]12C,,"human, plasma",endogenous baseline diurnal,baseline: daily mean concentration,relative peak deviation,184 ± 20%
N#Cc1ccc(C(c2ccc(C#N)cc2)n2cncn2)cc1,,"human patients, plasma","oral, 15 mg daily",,unbound Cmax at steady state,4040 ± 185 nM
COc1cc(OC)cc(N(CCNC(C)C)c2ccc3ncc(-c4cnn(C)c4)nc3c2)c1,,,,,pKa1,9.2
C/C(=N\c1ccc(O)cc1)c1cc2ccccc2n1C,,rat plasma,"0.78 ng/mL, time not given, 3 freeze-thaw cycles",baseline: nominal,remaining compound,102 ± 1.7%
Cn1cc(-c2cn3nccc3c(-c3cnn([C@]4(CC#N)C[C@@H](C#N)C4)c3)n2)cn1,,"healthy humans fed, plasma","30 mg once daily, day 10, geometric mean",,average concentration,31.4 ng/mL
COc1cc2c3c(n(CCCN4CCOCC4)c(=O)c2cc1OC)-c1cc2c(cc1C3=O)OCO2,,"beagle dog, female, plasma","intravenous infusion, 50 mg/m^2, 1 h infusion",,AUC(0-inf),1110 ± 267 ng·h/mL
N#Cc1ccc(-c2cnc3ccc(-c4ccc(C(=O)N5CCOCC5)cc4)cn23)cc1,measured: QTcF interval,healthy volunteers,"oral, 10 mg, fasted, time-averaged",,placebo-corrected change from baseline,4.3 ms
CCc1cc(C(=O)NC)c2nccc(N3CCc4c(cc(Cn5ccnc5)cc4-c4cn(C)nc4C(F)(F)F)C3=O)c2c1,measured: TBIL,Sprague Dawley rat,"oral, 50 mg/kg once daily, 7 days",baseline: vehicle,change in clinical chemistry or haematology parameter,6.7%
COc1ccc([C@@H](O)c2cc(-c3ncnc4cc(N5CCOCC5)ccc34)c(F)cc2Cl)nn1,,locally advanced rectal cancer patients,"250 mg, together with: capecitabine and radiotherapy",,drug-related blood lymphatic AE,50%
CC#CC(=O)N1CCC[C@H]1c1nc(-c2ccc(C(=O)Nc3ccccn3)cc2)c2c(N)nccn12,noncompartmental analysis,"human, severe impairment, plasma","oral, 50 mg, geometric mean",,unbound AUC(0-t),11.5 ng·h/mL
CN/C(=N/CCSCc1nc[nH]c1C)NC#N,,"human, plasma",,,scaled intrinsic clearance,9.32 mL/min/kg
CNCc1ccc(-c2[nH]c3cc(F)cc4c3c2CCNC4=O)cc1,,human patients,"oral, 600 mg twice daily, grade 1",,AST/ALT increased incidence,3.8%
O=C(Nc1nc2cccc(-c3ccc(CN4CCS(=O)(=O)CC4)cc3)n2n1)C1CC1,measured: injection site haematoma,human rheumatoid arthritis patients,"oral, 300 mg once daily, 4 weeks, regardless of relatedness",,treatment-emergent adverse events,0%
O=c1ccc2ccc(O)cc2o1,,human,,,scaled intrinsic clearance,465 mL/min/kg
CCn1cc(C(=O)N2CCOCC2)c(=O)c2cc(NC3Cc4ccccc4C3)cnc21,,"human, fasted, plasma","oral, 1200 mg single dose, tablet, median",,Tmax,45 min
COc1cc(N2CCC3(CCN(C)CC3)CC2)ccc1Nc1ncc(Cl)c(Nc2ccccc2P(C)(C)=O)n1,population PK model,human,"oral, base structural model",,V2/F,303 L
O=C(O)CCCOc1ccc(F)cc1-c1cc(-c2ccccc2C(F)(F)F)n(-c2ccccc2)n1,,"Crl:CD(SD) rat, female, serum","iv, 25 µg/kg, 14 days",,chloride,106 ± 1.5 mEq/L
N#Cc1ccc2c(c1)[C@H]1CCCN(C(=O)c3ccc4[nH]cnc4c3)[C@H]1C2,,human,"360 mg, end of trial",,maximum ACTH level,10.8 pmol/L
COc1ccc2c(=O)n(C)c(-c3ccccc3)nc2c1,,"Sprague-Dawley rat, male, abdominal fat","oral, 30 mg/kg, 2 h",baseline: abdominal fat over plasma,tissue/plasma ratio,22.8
CNCCOC12CC3(C)CC(C)(CC(Cn4ncc(-c5ccc(N6CCc7cccc(C(=O)Nc8nc9ccccc9s8)c7C6)nc5C(=O)O)c4C)(C3)C1)C2,,"beagle dog, male, anaesthetised","intravenous bolus, 0.03 mg/kg, 210 min",baseline: baseline,heart rate change,0%

# Excerpt of the above:
SMILES,test,test system,setting,scale,measurement,value
Cn1cc(-c2cn3nccc3c(-c3cnn([C@]4(CC#N)C[C@@H](C#N)C4)c3)n2)cn1,,"healthy humans fed, plasma","30 mg once daily, day 10, geometric mean",,average concentration,31.4 ng/mL
CNC(=O)c1ccc(-c2cnc3ncc(Cc4ccc5ncccc5c4)n3n2)cc1F,,human severe hepatic impairment,"oral, 200 mg single dose, covariate-adjusted geometric mean",,AUC(0-t),9110 ng·h/mL
C=CCN1CC(=O)N2[C@@H](Cc3ccc(O)cc3F)C(=O)N(Cc3cccc(N4CC(N5CCN(CC)CC5)C4)n3)C[C@@H]2N1C(=O)NCc1ccccc1,,advanced solid tumour patients,"oral, 30 mg twice daily, grade ≥3, dose-escalation",,treatment-related decreased appetite,0%
O=C(O)CCCOc1ccc(F)cc1-c1cc(-c2ccccc2C(F)(F)F)n(-c2ccccc2)n1,,"Crl:CD(SD) rat, female, serum","iv, 25 µg/kg, 14 days",,chloride,106 ± 1.5 mEq/L
CN1CC[C@@H](NC(=O)Nc2ccc(C#N)cc2)C[C@@H]1c1nc2ccccc2[nH]1,linear mixed-effects model,"healthy volunteers, plasma",oral,baseline: placebo,ΔΔQTcF concentration slope,0.005 ms per ng/mL
COc1ncc(-c2nc3c(n2C(C)C)[C@H](c2ccc(Cl)cc2)N(c2cc(Cl)cn(C)c2=O)C3=O)c(OC)n1,LC-MS/MS,"human, plasma","oral, 20 mg, cycle 1 day 1, low-dose arm",,AUC(0-last),2290 ng·h/mL
